Assay results gathered from unrelated publications.
Numbered parts are unrelated; each lists some results of a single study. Changes are numbered by the printed parent chain.

Block 1
Target: CCNB3, cyclin fold, Cln2 fusion (human)
Method: yeast growth competition, sequencing
Medium: yeast
Setting: weak parent motif
Relative to: not given
Direction: higher = stronger binding
Starting sequence: PKMYT1 docking peptide (human); SFEPRNLLSLFED
For `E12N`, “normalised enrichment score” read 0.587.
`L7S`: “normalised enrichment score” 0.0855.
Under “normalised enrichment score”, `S9P` is recorded as 0.837.
`E12H` — result for “normalised enrichment score”: 0.499.
Under “normalised enrichment score”, `S9H` is recorded as 0.354.
For `S1N`, “normalised enrichment score” read 0.42.
For `E12R`, “normalised enrichment score” read 0.474.
`L8G` — result for “normalised enrichment score”: 0.0611.
`F11T` — result for “normalised enrichment score”: 0.328.
For `L8S`, “normalised enrichment score” read 0.323.
`L7N` — result for “normalised enrichment score”: 0.249.
`L8C`: “normalised enrichment score” 0.338.
`R5I` — result for “normalised enrichment score”: 0.7.
`S1C`: “normalised enrichment score” 0.572.
Under “normalised enrichment score”, `F2Q` is recorded as 0.422.
Under “normalised enrichment score”, `N6M` is recorded as 0.0166.
Under “normalised enrichment score”, `D13N` is recorded as 0.862.
For `L7G`, “normalised enrichment score” read 0.384.
`S9Y`: “normalised enrichment score” 0.685.
`L7Y`: “normalised enrichment score” 0.2.
`E12W`: “normalised enrichment score” 0.545.

Block 2
Molecule: B1 (RFPL3 RING domain)
Method: yeast two-hybrid
Medium: yeast
Setting: mostly zero background
Relative to: not given
Direction: higher = stronger interaction
B1: RFPL3 RING domain (UniProt O75679); chain MAALFQEASSCPVCSDYLEKPMSLECGCTVCLKCINSLQKEPHGEDLLCCCCSMVSQRNKIRP
It gave 0 for “lacZ reporter activity” (UBE2T UBC core domain (UniProt Q9NPD8)).
For UBE2S UBC core domain (UniProt Q16763): “lacZ reporter activity” read 0.
UBE2G1 UBC core domain (UniProt P62253) — “lacZ reporter activity”: 0.
It gave 0 for “lacZ reporter activity” (UBE2O UBC core domain (UniProt Q9C0C9)).
The “lacZ reporter activity” was 0 (UBE2J2 UBC core domain (UniProt Q8N2K1)).
For UBE2M UBC core domain (UniProt P61081): “lacZ reporter activity” read 0.
It gave 0 for “lacZ reporter activity” (UBE2L3 UBC core domain (UniProt P68036)).
The “lacZ reporter activity” was 0 (UBE2Q1 UBC core domain (UniProt Q7Z7E8)).
The “lacZ reporter activity” was 0 (BIRC6 UBC core domain (UniProt Q9NR09)).
It gave 0 for “lacZ reporter activity” (UBE2D1 UBC core domain (UniProt P51668)).
UBE2Z UBC core domain (UniProt Q9H832) — “lacZ reporter activity”: 0.

Block 3
Target: RING finger protein unkempt homolog, zinc fingers 1-6, GST-SBP tag (UNK, Homo sapiens, UniProt Q9C0B0, residues 30-357)
Method: RNA Bind-n-Seq
Molecule type: RNA
Medium: in vitro
Tested at: not given
Setting: RNA with constant flanks, human and mouse sites, ends assumed
Relative to: input RNA pool
Direction: higher = stronger binding
Shared flanks, not repeated: GGGAGUUCUACAGUCCGACGAUC … CAACAGAGGAUUGAGCAUCA
Residues (chain): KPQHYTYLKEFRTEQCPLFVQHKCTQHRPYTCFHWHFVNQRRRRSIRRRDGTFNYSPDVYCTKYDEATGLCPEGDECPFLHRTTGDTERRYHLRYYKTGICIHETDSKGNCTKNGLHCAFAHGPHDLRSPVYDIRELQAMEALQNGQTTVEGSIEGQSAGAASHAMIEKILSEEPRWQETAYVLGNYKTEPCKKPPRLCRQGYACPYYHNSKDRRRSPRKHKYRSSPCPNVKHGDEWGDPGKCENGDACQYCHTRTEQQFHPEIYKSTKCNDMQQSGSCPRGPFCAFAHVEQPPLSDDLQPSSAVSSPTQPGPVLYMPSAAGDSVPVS
`ACCCUCAUCAACAUCCCAGCCCUAAACGACAGCGACUCUGAAGUGGAGGAUAUCUCGGAAAUAGAGUCCAACCGGUCUUUCUCUCCAGAGGAGAGACGCCAGCAGUAUUCUGAUCAGGAU` has a bound/input enrichment of 0.179 ratio.
With `CCCAAACCACCCCAGAUUCAUUAUUGUGAUGUUUGUAAGAUCAGCUGUGCUGGACCACAGACUUAUAAAGAGCACUUAGAAGGACAGAAACAUAAAAAAAAGGAAGCCGCAUUGAAAGCC` the bound/input enrichment was 1.08 ratio.
The bound/input enrichment of `CGGAAUCUGCUGGCUCUUCGUCAGAUUGGGCAGAGGACGAUAAGCACUGCUUCCCGCAGGCAUUUUAAAAAUAAAGUUCCGGAGAAGCAAAAACUGUUCCAGGAGGAUGAUGAAAUUCCA` is reported as 0.159 ratio.
For `AAAUAAAUAUUUAAUUUUUUUAAUUGCUCUUGUAUAAUCAGAUGCCCUUUUUAGUAUUAUUUUAGAAGCAUUUGGGAGGAUUUUGCCUAAAAUACAAUUUAUUGGGGGAGACUAGAUUUU`, the bound/input enrichment was 11.5 ratio.
`UUAUAUCUCAUUCUAAAGAUAUCUAGCAAAUCUCCAGCAGAGAUCUAGGACAGUGCCCAGGAAAGCAAUGGUAUCUGUUGGUAGGUACAGGACUGUAUAUAGGACUCUAUUCACUUAGCU` gave a bound/input enrichment of 0.806 ratio.
With `GGCAUGGUGUCAGAGCCCCUGGAGGACUUGGACCCCUACUAUGCAGACAAAAAGACUUUCAUAGUAUUGAACAAAGGGAAAACAAUCUUCCGUUUCAAUGCCACACCUGCUUUAUAUAUG` the bound/input enrichment was 0.0976 ratio.
With `AUUCUUGCAGCCUGCCGACCUUUGACCAUAACGGAAUUAUAUCACGCAGUAUGGACCAAAAACAUGUCGUUAACUUUGGAAGAUUUUCAACGCAAGUUAGAUAUCCUCUCCAAACUUCUU` the bound/input enrichment was 0.0973 ratio.
For `CCACGCUGUGGUUUCAGCAAGCAGAUGGUGGAAAUUCUUCACAAACAUAAUAUUCAGUUUAGCAGUUUUGAUAUCUUCUCAGAUGAAGAGGUUCGACAGGGACUCAAAGCCUAUUCCAGU`, the bound/input enrichment was 0.834 ratio.

Block 4
Target: ABI1, truncated, D143A, DHFR fusion (Arabidopsis thaliana)
Method: DHFR PCA, deep sequencing
Medium: yeast
Setting: methotrexate growth selection, single substitutions
With: (+)-ABA 0.39 µM
Relative to: wild-type fitted maximum
Direction: higher = stronger binding
Starting sequence: PYL1, truncated, DHFR fusion (Arabidopsis thaliana); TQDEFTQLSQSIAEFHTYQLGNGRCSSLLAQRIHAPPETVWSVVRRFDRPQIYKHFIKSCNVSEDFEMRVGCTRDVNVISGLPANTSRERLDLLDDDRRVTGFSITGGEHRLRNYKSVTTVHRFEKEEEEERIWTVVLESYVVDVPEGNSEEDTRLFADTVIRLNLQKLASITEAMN; partner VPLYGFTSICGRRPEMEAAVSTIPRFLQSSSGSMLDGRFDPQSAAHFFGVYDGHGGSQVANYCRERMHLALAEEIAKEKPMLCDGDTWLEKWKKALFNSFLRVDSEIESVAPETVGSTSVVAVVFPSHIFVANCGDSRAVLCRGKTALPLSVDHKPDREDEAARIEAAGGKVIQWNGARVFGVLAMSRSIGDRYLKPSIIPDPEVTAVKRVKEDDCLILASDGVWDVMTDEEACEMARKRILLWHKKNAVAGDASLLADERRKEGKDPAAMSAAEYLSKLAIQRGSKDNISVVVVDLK
`L138T` — result for “relative binding score”: -19.8%.
`T17G` — result for “relative binding score”: 1.87%.
`N114H` — result for “relative binding score”: 6.81%.
`Q31V`: “relative binding score” 1.37%.
`T17Q` — result for “relative binding score”: 10.5%.
For `Y18E`, “relative binding score” read -2.42%.
`Q167P` — result for “relative binding score”: 8.22%.
For `S80T`, “relative binding score” read 40.3%.
`I33H` — result for “relative binding score”: -0.148%.
`E89N`: “relative binding score” -9.26%.
For `V78M`, “relative binding score” read 65.6%.
Under “relative binding score”, `E128V` is recorded as 20.7%.
`I105D`: “relative binding score” -11.3%.
Under “relative binding score”, `R45K` is recorded as -0.649%.
`H16T`: “relative binding score” -7.62%.
For `G107F`, “relative binding score” read -4.91%.
For `Y115A`, “relative binding score” read -8.28%.
For `P36N`, “relative binding score” read 30.4%.
`D75T` — result for “relative binding score”: 71%.
Under “relative binding score”, `V118D` is recorded as 7.45%.
`N165Y`: “relative binding score” 1.01%.
`Q19I` — result for “relative binding score”: 24.1%.
`V161M` — result for “relative binding score”: 78.7%.
For `K58L`, “relative binding score” read 27.9%.

For quick reference, copied from above (block 3):
`ACCCUCAUCAACAUCCCAGCCCUAAACGACAGCGACUCUGAAGUGGAGGAUAUCUCGGAAAUAGAGUCCAACCGGUCUUUCUCUCCAGAGGAGAGACGCCAGCAGUAUUCUGAUCAGGAU` has a bound/input enrichment of 0.179 ratio.
With `CCCAAACCACCCCAGAUUCAUUAUUGUGAUGUUUGUAAGAUCAGCUGUGCUGGACCACAGACUUAUAAAGAGCACUUAGAAGGACAGAAACAUAAAAAAAAGGAAGCCGCAUUGAAAGCC` the bound/input enrichment was 1.08 ratio.
The bound/input enrichment of `CGGAAUCUGCUGGCUCUUCGUCAGAUUGGGCAGAGGACGAUAAGCACUGCUUCCCGCAGGCAUUUUAAAAAUAAAGUUCCGGAGAAGCAAAAACUGUUCCAGGAGGAUGAUGAAAUUCCA` is reported as 0.159 ratio.
For `AAAUAAAUAUUUAAUUUUUUUAAUUGCUCUUGUAUAAUCAGAUGCCCUUUUUAGUAUUAUUUUAGAAGCAUUUGGGAGGAUUUUGCCUAAAAUACAAUUUAUUGGGGGAGACUAGAUUUU`, the bound/input enrichment was 11.5 ratio.
`UUAUAUCUCAUUCUAAAGAUAUCUAGCAAAUCUCCAGCAGAGAUCUAGGACAGUGCCCAGGAAAGCAAUGGUAUCUGUUGGUAGGUACAGGACUGUAUAUAGGACUCUAUUCACUUAGCU` gave a bound/input enrichment of 0.806 ratio.
With `GGCAUGGUGUCAGAGCCCCUGGAGGACUUGGACCCCUACUAUGCAGACAAAAAGACUUUCAUAGUAUUGAACAAAGGGAAAACAAUCUUCCGUUUCAAUGCCACACCUGCUUUAUAUAUG` the bound/input enrichment was 0.0976 ratio.
With `AUUCUUGCAGCCUGCCGACCUUUGACCAUAACGGAAUUAUAUCACGCAGUAUGGACCAAAAACAUGUCGUUAACUUUGGAAGAUUUUCAACGCAAGUUAGAUAUCCUCUCCAAACUUCUU` the bound/input enrichment was 0.0973 ratio.
